Assay results collected from several papers.
Lines come from different studies, so protocols differ. Numbers after ± are the reported error.

| Compound | host | matrix | route | dose | setting | relative to | oral bioavailability |
| --- | --- | --- | --- | --- | --- | --- | --- |
| COc1ccc2c(Cc3ccccc3F)c3n(c(=O)c2c1OC)CCc1cc2c(cc1-3)OCO2 | rat | plasma | oral | 5 mg/kg |  |  | 15.2% |
| CNC(=O)c1cccc(-c2ccc([C@@H](O)[C@H]3O[C@H](CO)[C@@H](O)[C@H](O)[C@@H]3O)c(C)c2)c1 | male Sprague-Dawley rat | plasma | oral | 10 mg/kg | unit not given | IV 3 mg/kg | 0.0195 |
| NCCOCC(=O)N1CCC[C@H](C(=O)NCc2nc(-c3ccc(C(F)(F)F)cc3)cs2)C1 | Sprague-Dawley rat, male | plasma | oral | 3 mg/kg |  |  | 1.1% |
| CCn1ccc2c([C@](O)(c3cnc(C(F)(F)F)c(Cl)c3)C3CC3)n(C)nc2c1=O | Sprague-Dawley rat, male |  | oral | 3 mg/kg |  | IV 1 mg/kg | ~35% |
| Cc1nc(Nc2ncc(C(=O)Nc3c(C)cccc3Cl)s2)cc(N2CC[C@H](N)C2)n1 | Sprague-Dawley rats male | plasma | oral | 5 mg/kg | IV 1 mg/kg |  | < 1% |
| CCOCC(=O)N1CCC[C@H](C(=O)NCc2nc(-c3ccc(C#N)nc3)cs2)C1 | Sprague-Dawley rat, male | plasma | oral | 3 mg/kg |  |  | 69% |
| O=C1NC(=O)[C@](CNC(=O)c2ccccc2-c2ccc(C(F)(F)F)cc2)(C2CC2)N1 | rat Wistar male |  | oral |  |  |  | 86% |
| COc1ccc2c(=O)n(C)c(-c3ccccc3)nc2c1 | Sprague-Dawley rat, male |  | oral | 10 mg/kg |  | IV 2 mg/kg | 9.03 ± 2.66% |
| CCOC(=O)[C@@]12C[C@@H]1[C@@H](n1ccc3c(NC)nc(C#Cc4ccc(Cl)s4)nc31)[C@H](O)[C@@H]2O | Sprague-Dawley rat, male | plasma | oral | 1 mg/kg |  |  | 58.3% |
| [2H]c1cc(C)c(NC(=O)c2cnc(Nc3cc(N4CCCCC4)nc(C)n3)s2)c(Cl)c1 | Sprague-Dawley rats male | plasma | oral | 5 mg/kg | IV 1 mg/kg |  | < 1% |
| CCOCC(=O)N1CCC[C@H](C(=O)NCc2nc(-c3ccc(C)nc3)cs2)C1 | Sprague-Dawley rat, male | plasma | oral | 3 mg/kg |  |  | 63% |
| C=CCn1c(=O)c2cnc(Nc3ccc(N4CCN(C)CC4)cc3)nc2n1-c1ccc2c(n1)[C@@](O)(CC)CC2 | rat |  | oral | 60 mg/kg |  |  | 47% |
| O=C1c2ccncc2C(=O)c2c1[nH]c1ccccc21 | Sprague-Dawley rat, female | plasma | oral | 5 mg/kg |  | intravenous AUC(0-t) | 19.7% |
| CCONC(=O)N1CCC[C@H](C(=O)NCc2nc(-c3ccc(C#N)cc3)cs2)C1 | Sprague-Dawley rat, male | plasma | oral | 3 mg/kg |  |  | 19% |
| N=C(N)NCCNC(=O)C1(Nc2ccccc2)CCN(Cc2ccccc2)CC1 | female Sprague-Dawley rats | plasma |  | 50 and 2.5 mg/kg |  |  | 1.9 ± 0.4% |

For quick reference, copied from above:
| Compound | host | matrix | route | dose | setting | relative to | oral bioavailability |
| --- | --- | --- | --- | --- | --- | --- | --- |
| COc1ccc2c(=O)n(C)c(-c3ccccc3)nc2c1 | Sprague-Dawley rat, male |  | oral | 10 mg/kg |  | IV 2 mg/kg | 9.03 ± 2.66% |
